Experimental data from different studies.
Parts stem from different laboratories: compare values within a part only. Several values in a cell are separate wells, animals, samples, runs or records. Substitutions count along the parent as printed.
Sequence of UniProt Q08499 (whole entry, looked up): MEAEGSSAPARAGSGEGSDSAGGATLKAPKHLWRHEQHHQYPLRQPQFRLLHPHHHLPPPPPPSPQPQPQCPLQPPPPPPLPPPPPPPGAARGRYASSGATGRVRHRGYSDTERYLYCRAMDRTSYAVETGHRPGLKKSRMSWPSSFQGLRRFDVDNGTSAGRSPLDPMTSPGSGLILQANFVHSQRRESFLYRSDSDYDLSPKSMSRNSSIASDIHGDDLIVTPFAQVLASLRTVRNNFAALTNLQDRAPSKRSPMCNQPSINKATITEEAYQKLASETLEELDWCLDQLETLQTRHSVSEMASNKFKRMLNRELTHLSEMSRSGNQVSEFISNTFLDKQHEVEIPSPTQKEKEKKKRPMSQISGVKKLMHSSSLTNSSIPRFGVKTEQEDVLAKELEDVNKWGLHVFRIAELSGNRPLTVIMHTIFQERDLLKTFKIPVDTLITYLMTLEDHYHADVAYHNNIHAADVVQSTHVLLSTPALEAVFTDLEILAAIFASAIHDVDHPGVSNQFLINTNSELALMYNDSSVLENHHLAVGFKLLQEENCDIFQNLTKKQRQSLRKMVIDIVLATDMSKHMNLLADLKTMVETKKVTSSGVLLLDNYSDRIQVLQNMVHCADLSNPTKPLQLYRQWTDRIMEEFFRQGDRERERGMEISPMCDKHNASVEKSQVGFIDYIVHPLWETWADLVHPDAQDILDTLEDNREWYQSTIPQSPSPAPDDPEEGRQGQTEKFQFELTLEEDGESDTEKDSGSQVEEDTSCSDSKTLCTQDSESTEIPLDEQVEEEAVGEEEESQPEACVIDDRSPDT
Sequence of UniProt P48730 (whole entry, looked up): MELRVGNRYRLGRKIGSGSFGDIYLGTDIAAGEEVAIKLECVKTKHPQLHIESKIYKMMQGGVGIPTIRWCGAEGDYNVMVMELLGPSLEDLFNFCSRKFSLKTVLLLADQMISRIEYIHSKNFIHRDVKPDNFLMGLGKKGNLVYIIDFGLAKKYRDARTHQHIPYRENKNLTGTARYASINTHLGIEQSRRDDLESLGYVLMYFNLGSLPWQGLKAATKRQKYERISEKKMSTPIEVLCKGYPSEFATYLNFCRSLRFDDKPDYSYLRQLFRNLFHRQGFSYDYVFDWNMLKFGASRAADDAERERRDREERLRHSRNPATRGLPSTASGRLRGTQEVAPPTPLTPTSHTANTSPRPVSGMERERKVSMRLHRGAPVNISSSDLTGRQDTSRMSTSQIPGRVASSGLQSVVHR
Sequence of UniProt O15111 (whole entry, looked up): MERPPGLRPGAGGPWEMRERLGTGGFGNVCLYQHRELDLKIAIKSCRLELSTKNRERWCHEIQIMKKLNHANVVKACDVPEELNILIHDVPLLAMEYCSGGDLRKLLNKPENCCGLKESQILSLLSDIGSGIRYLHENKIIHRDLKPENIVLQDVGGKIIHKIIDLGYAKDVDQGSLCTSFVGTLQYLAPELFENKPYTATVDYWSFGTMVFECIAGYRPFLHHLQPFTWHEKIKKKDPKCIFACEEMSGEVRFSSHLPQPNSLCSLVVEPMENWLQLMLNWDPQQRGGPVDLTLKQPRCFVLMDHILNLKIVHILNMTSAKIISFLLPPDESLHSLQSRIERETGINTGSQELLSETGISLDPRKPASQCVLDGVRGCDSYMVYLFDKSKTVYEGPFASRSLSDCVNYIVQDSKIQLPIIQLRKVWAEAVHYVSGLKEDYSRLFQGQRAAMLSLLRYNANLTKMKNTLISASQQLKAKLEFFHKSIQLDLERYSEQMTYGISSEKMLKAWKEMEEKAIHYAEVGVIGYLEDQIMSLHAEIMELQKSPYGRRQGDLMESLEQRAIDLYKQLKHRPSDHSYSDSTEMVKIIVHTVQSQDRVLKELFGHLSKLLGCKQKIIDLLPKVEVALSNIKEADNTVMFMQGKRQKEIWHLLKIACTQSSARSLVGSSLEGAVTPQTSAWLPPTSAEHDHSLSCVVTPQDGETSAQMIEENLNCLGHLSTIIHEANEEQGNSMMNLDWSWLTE
Sequence of UniProt Q13470 (whole entry, looked up): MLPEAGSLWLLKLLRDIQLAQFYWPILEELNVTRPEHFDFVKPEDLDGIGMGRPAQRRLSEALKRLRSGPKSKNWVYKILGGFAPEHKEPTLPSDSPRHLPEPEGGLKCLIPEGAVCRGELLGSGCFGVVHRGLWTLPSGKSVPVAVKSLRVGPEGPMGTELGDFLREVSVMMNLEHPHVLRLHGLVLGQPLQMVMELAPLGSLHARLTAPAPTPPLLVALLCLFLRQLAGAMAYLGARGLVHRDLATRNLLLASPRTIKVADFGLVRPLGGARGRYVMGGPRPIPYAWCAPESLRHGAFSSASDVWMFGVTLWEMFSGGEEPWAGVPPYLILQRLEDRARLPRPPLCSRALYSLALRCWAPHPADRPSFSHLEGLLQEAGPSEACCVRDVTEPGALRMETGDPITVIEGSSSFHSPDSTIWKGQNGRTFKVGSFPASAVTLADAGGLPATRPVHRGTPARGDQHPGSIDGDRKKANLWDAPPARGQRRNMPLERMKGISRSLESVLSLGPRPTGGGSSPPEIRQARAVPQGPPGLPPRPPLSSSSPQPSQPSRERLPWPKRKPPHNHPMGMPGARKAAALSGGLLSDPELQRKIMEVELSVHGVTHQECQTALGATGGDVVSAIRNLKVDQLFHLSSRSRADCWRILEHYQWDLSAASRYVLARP
Sequence of UniProt P05979 (whole entry, looked up): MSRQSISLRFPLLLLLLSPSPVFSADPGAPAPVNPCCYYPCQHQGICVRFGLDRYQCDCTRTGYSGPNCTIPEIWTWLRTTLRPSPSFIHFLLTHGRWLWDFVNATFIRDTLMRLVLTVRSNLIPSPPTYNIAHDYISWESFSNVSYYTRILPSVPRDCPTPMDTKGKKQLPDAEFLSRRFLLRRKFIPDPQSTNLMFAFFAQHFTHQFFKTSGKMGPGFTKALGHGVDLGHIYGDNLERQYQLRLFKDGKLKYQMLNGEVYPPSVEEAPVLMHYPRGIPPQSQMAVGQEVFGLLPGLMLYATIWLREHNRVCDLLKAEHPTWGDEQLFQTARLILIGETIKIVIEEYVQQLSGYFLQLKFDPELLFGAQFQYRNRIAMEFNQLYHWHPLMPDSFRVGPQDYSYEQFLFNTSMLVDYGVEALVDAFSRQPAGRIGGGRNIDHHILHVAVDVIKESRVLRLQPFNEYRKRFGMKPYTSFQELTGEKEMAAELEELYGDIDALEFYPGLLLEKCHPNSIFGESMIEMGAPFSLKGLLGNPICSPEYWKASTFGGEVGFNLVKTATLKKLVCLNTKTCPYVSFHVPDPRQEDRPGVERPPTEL
Sequence of UniProt P53355 (whole entry, looked up): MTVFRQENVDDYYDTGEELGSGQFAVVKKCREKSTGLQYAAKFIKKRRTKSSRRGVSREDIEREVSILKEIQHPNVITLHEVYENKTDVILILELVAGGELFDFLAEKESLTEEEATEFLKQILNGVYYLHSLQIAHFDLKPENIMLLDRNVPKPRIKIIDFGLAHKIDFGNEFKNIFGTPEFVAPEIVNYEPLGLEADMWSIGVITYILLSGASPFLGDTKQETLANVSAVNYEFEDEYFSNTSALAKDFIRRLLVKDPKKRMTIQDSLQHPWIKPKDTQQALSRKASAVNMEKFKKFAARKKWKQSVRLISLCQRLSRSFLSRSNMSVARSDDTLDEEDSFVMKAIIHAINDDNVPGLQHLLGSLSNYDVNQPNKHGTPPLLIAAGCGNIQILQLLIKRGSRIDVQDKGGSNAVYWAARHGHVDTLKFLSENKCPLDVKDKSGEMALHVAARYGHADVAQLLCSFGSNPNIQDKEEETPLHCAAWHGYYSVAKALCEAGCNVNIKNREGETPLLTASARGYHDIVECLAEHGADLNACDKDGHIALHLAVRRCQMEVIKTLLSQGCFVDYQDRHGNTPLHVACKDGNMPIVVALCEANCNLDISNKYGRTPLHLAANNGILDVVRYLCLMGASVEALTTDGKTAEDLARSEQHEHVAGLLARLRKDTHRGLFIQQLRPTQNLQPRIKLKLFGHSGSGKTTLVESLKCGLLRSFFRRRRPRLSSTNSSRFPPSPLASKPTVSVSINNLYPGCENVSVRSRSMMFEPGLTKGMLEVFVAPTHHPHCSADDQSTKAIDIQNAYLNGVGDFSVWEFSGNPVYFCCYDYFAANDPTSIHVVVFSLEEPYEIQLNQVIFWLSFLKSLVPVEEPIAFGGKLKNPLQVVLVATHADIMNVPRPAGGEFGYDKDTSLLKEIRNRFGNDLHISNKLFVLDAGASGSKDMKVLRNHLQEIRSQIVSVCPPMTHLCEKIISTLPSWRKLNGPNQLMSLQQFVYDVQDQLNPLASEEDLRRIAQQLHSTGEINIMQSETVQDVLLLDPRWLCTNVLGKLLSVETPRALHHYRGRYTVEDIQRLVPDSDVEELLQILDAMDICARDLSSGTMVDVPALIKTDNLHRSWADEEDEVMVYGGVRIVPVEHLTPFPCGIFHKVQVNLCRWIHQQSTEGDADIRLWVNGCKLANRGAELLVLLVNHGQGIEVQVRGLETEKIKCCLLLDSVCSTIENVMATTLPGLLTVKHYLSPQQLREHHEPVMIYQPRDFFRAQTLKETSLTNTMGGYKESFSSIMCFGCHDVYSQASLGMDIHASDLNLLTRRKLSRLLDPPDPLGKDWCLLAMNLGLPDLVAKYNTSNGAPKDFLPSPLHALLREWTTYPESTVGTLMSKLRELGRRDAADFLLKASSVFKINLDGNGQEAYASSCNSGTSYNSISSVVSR
Sequence of UniProt P35372 (whole entry, looked up): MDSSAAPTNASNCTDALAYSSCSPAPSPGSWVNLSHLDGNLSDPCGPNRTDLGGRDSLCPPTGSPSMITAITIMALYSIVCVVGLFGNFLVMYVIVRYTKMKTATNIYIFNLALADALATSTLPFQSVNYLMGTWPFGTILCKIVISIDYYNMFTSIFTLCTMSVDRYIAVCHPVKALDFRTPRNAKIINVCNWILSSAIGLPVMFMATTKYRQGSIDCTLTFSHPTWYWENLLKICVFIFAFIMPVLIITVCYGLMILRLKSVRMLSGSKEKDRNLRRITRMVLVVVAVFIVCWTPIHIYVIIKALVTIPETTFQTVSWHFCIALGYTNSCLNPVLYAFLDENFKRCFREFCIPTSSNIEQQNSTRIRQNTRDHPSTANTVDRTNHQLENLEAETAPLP

Set 1
Compound: N#CC1(c2ccccn2)CCN(Cc2cc(C(=O)O)c(=O)n3ccccc23)CC1
Technique: competition with immobilised ligand
Tested at: 1 µM
Cyclin-dependent kinase-like 3 (CDKL3, Homo sapiens, UniProt Q8IVW4); cell-free assay — remaining binding: 89%.
The remaining binding was 100% (Calcium/calmodulin-dependent protein kinase type II subunit delta (CAMK2D, Homo sapiens, UniProt Q13557); cell-free assay).
The remaining binding was 75% (Serine/threonine-protein kinase ICK (CILK1, Homo sapiens, UniProt Q9UPZ9); binding).
For Mitogen-activated protein kinase 15 (MAPK15, Homo sapiens, UniProt Q8TD08); cell-free assay: remaining binding read 100%.
Phosphatidylinositol 4-phosphate 3-kinase C2 domain-containing subunit beta (PIK3C2B, Homo sapiens, UniProt O00750); cell-free assay — remaining binding: 97%.
For Inhibitor of nuclear factor kappa-B kinase subunit alpha (CHUK, Homo sapiens, UniProt O15111); cell-free assay: remaining binding read 100%.
For Epidermal growth factor receptor (EGFR, Homo sapiens, UniProt P00533, L858R); cell-free assay: remaining binding read 86%.
For Membrane-associated tyrosine- and threonine-specific cdc2-inhibitory kinase (PKMYT1, Homo sapiens, UniProt Q99640); cell-free assay: remaining binding read 100%.
The remaining binding was 88% (cAMP-dependent protein kinase catalytic subunit alpha (PRKACA, Homo sapiens, UniProt P17612); cell-free assay).
Tyrosine-protein kinase ABL1, phosphorylated (ABL1, Homo sapiens, UniProt P00519, Q252H); cell-free assay — remaining binding: 72%.
It gave 100% for remaining binding (Phosphatidylinositol 4-phosphate 5-kinase type-1 alpha (PIP5K1A, Homo sapiens, UniProt Q99755); cell-free assay).
The remaining binding was 80% (Receptor-interacting serine/threonine-protein kinase 4 (RIPK4, Homo sapiens, UniProt P57078); cell-free assay).
The remaining binding was 100% (Myosin light chain kinase family member 4 (MYLK4, Homo sapiens, UniProt Q86YV6); cell-free assay).
The remaining binding was 91% (Casein kinase I isoform gamma-2 (CSNK1G2, Homo sapiens, UniProt P78368); cell-free assay).
Serine/threonine-protein kinase B-raf (BRAF, Homo sapiens, UniProt P15056, V600E); cell-free assay — remaining binding: 100%.
Death-associated protein kinase 1 (DAPK1, Homo sapiens, UniProt P53355); cell-free assay — remaining binding: 100%.
For Epidermal growth factor receptor (EGFR, Homo sapiens, UniProt P00533, T790M); cell-free assay: remaining binding read 100%.
Non-receptor tyrosine-protein kinase TNK1 (TNK1, Homo sapiens, UniProt Q13470); cell-free assay — remaining binding: 93%.

Set 2
SMILES: CNC(=O)c1ccc(-c2cnn3ccc(C(=O)N(C)c4ccc(Cl)c(C(=O)O)c4)cc23)cc1
For Mu-type opioid receptor (OPRM1, Homo sapiens, UniProt P35372); cell-free assay: IC50 read greater than 30 µM.
For Casein kinase I isoform delta (CSNK1D, Homo sapiens, UniProt P48730); enzyme activity, inhibitor: IC50 read greater than 30 µM.
For 3',5'-cyclic-AMP phosphodiesterase 4D (PDE4D, Homo sapiens, UniProt Q08499); cell-free assay, inhibitor: IC50 read greater than 30 µM.
For Epidermal growth factor receptor (EGFR, Homo sapiens, UniProt P00533); enzyme activity, inhibitor: IC50 read greater than 30 µM.
For Prostaglandin G/H synthase 1 (PTGS1, Ovis aries, UniProt P05979); cell-free assay: IC50 read greater than 30 µM.
The IC50 was greater than 30 µM (Mast/stem cell growth factor receptor Kit (KIT, Homo sapiens, UniProt P10721); enzyme activity, inhibitor).

Set 3
Target: vanadate, free oxyanion
Technique: microfluidic competitive inhibition
Sample: in vitro, cell-free expressed
Tested at: not given
Setting: derived from inhibition constants, unchanged parent 676 nM
Reading: lower = stronger binding
Starting sequence: PafA, mature enzyme, eGFP fusion (Elizabethkingia meningoseptica, UniProt Q9KJX5); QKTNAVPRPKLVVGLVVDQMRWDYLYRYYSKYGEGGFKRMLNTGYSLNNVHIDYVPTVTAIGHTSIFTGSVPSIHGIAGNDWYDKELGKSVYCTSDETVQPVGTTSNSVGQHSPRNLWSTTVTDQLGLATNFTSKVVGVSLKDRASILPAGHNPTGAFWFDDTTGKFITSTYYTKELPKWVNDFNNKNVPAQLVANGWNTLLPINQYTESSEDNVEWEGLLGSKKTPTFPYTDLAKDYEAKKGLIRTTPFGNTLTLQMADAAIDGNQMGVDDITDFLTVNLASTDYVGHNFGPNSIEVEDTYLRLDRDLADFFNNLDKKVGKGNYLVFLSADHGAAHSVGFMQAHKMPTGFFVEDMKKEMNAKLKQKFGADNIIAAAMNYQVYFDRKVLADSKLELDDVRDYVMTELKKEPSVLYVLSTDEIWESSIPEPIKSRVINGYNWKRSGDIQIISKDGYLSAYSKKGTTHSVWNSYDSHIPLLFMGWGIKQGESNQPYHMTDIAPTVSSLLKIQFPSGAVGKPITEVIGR
`K242G`: “oxyanion analog dissociation constant” 0.497 µM.
For `F160G`, “oxyanion analog dissociation constant” read 1.17 µM.
`T284G`: “oxyanion analog dissociation constant” 0.774 µM.
Under “oxyanion analog dissociation constant”, `T155V` is recorded as 0.599 µM.
`T200G`: “oxyanion analog dissociation constant” 0.813 µM.
For `L478V`, “oxyanion analog dissociation constant” read 1.15 µM.

Set 4
Cell line: mouse MPNST tumor cells
Technique: high-content nuclear imaging
Item: cell number
Tested at: 10 µM
Time: 12 h
Setting: mean of 2 replicates
Reference: plate mean
Reading: higher = more cells
The nuclei count of O=C1C(=O)c2ccccc2C(O)=C1C1CCC(c2ccc(Cl)cc2)CC1 (centres unmarked) is reported as 0.28 z-score and -0.154 z-score.
COc1cccc(OC)c1-c1cc(C(=O)NC2(C(=O)O)C3CC4CC(C3)CC2C4)nn1-c1ccnc2cc(Cl)ccc12 (centres unmarked) has a nuclei count of 1.87 z-score.
The nuclei count of Nc1ccc(-c2nc3cc(Oc4ccc(Oc5ccc6[nH]c(-c7ccc(N)cc7)nc6c5)cc4)ccc3[nH]2)cc1 is reported as -5.41 z-score.
Nc1ccc(-c2cccc3c(=O)cc(N4CCOCC4)oc23)cc1 has a nuclei count of -0.183 z-score.
For CCCCCCOc1nsnc1C1=CCCN(C)C1, the nuclei count was 2.91 z-score.
The nuclei count of C[C@@H]1C[C@H]2[C@@H]3C[C@H](F)C4=CC(=O)C=C[C@]4(C)[C@@]3(F)[C@@H](O)C[C@]2(C)[C@@]1(O)C(=O)COC(=O)C(C)(C)C is reported as 3.58 z-score.
O=C(Nc1cccc(Cl)c1)Nc1ncc(CCNc2ncnc3ccsc23)s1 gave a nuclei count of -1.69 z-score.
With Cc1cc(C)c(S(=O)(=O)n2cc(C)cc2C)c(C)c1 the nuclei count was 0.305 z-score.

Excerpt of the above (set 1):
The remaining binding was 100% (Myosin light chain kinase family member 4 (MYLK4, Homo sapiens, UniProt Q86YV6); cell-free assay).
The remaining binding was 91% (Casein kinase I isoform gamma-2 (CSNK1G2, Homo sapiens, UniProt P78368); cell-free assay).
Serine/threonine-protein kinase B-raf (BRAF, Homo sapiens, UniProt P15056, V600E); cell-free assay — remaining binding: 100%.
Death-associated protein kinase 1 (DAPK1, Homo sapiens, UniProt P53355); cell-free assay — remaining binding: 100%.
